Measured values of several laboratories.
Each numbered part is a random draw from the data of one study; scales do not carry over between parts. ± marks the error that the study gave.
Chain of UniProt P02770 (whole entry, looked up): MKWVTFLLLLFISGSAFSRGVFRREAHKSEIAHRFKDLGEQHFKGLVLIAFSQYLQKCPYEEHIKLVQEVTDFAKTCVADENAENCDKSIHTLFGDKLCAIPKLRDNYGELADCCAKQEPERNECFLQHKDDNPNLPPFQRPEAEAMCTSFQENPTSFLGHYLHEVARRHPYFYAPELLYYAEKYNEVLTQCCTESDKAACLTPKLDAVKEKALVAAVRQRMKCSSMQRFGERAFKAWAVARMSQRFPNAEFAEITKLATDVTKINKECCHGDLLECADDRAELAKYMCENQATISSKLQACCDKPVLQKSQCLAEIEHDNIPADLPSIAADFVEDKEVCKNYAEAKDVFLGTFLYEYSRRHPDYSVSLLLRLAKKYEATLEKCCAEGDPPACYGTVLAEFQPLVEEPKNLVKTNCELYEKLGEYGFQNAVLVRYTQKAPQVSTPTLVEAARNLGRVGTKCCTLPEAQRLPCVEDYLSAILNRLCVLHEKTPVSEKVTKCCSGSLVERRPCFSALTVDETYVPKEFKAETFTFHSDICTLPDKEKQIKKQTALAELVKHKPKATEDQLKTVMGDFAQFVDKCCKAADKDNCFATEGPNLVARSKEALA
Chain of UniProt P22303 (whole entry, looked up): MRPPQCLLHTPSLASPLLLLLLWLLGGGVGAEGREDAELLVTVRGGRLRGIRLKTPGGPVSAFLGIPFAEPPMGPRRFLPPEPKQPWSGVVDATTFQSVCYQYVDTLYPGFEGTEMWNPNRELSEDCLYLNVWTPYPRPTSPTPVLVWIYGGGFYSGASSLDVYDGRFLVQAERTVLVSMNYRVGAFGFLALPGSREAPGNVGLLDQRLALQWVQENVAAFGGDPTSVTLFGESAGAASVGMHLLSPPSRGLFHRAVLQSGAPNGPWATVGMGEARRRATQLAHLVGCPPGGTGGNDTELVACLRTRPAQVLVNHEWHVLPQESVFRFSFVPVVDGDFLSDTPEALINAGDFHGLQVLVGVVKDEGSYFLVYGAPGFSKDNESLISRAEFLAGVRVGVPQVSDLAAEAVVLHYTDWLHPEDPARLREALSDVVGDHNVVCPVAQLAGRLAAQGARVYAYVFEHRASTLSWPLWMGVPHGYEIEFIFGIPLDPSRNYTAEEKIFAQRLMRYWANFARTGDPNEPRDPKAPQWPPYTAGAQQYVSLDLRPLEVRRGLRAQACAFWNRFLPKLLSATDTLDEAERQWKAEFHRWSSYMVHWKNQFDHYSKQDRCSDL

Series 1 — organism: Lucilia cuprina; route: thorax injection; time: 24 h; quantity: LD50
CC[C@H](C)[C@H](NC(=O)[C@H](Cc1ccccc1)NC(=O)[C@H](CC(=O)O)NC(=O)[C@H](CCCCN)NC(=O)[C@H](C)NC(=O)[C@H](CCCCN)NC(=O)[C@H](CC(N)=O)NC(=O)[C@H](CC(C)C)NC(=O)[C@H](Cc1c[nH]c2ccccc12)NC(=O)[C@H](CCC(=O)O)NC(=O)[C@H](CCCCN)NC(=O)[C@@H](NC(=O)CNC(=O)[C@H](C)N)[C@@H](C)O)C(=O)N[C@@H](CCCCN)C(=O)N[C@@H](CCC(=O)O)C(=O)N[C@@H](CCCCN)C(=O)NCC(=O)N[C@@H](CC(C)C)C(=O)N[C@@H](CCC(=O)O)C(=O)N[C@@H](CCSC)C(=O)N[C@@H](CC(C)C)C(=O)N[C@@H](CO)C(=O)N[C@@H](C)C(=O)N[C@@H](C)C(=O)N[C@@H](C)C(=O)N[C@@H](CC(N)=O)C(=O)N[C@@H](C)C(=O)N[C@@H](C)C(=O)N[C@@H](CC(C)C)C(=O)N[C@@H](CC(N)=O)C(=O)O: > 50 nmol/g
CC[C@H](C)[C@H](NC(=O)[C@H](Cc1ccccc1)NC(=O)[C@H](CC(=O)O)NC(=O)[C@H](CCCCN)NC(=O)[C@H](C)NC(=O)[C@H](CCCCN)NC(=O)[C@H](CC(N)=O)NC(=O)[C@H](CC(C)C)NC(=O)[C@H](Cc1c[nH]c2ccccc12)NC(=O)[C@H](CCC(=O)O)NC(=O)[C@H](CCCCN)NC(=O)[C@@H](NC(=O)CN)[C@@H](C)O)C(=O)N[C@@H](CCCCN)C(=O)N[C@@H](CCC(=O)O)C(=O)N[C@@H](CCCCN)C(=O)NCC(=O)N[C@@H](CC(C)C)C(=O)NCC(=O)N[C@@H](CCSC)C(=O)N[C@@H](CC(C)C)C(=O)N[C@@H](CO)C(=O)N[C@@H](C)C(=O)N[C@@H](C)C(=O)N[C@@H](C)C(=O)N[C@@H](CC(N)=O)C(=O)N[C@@H](C)C(=O)N[C@@H](C)C(=O)N[C@@H](CC(C)C)C(=O)N[C@@H](CC(N)=O)C(=O)O: 41.7 ± 18.3 nmol/g
CC[C@H](C)[C@H](NC(=O)CNC(=O)[C@H](CC(C)C)NC(=O)CNC(=O)[C@H](CCCCN)NC(=O)[C@H](CCC(=O)O)NC(=O)[C@H](CCCCN)NC(=O)[C@@H](NC(=O)[C@H](Cc1ccccc1)NC(=O)[C@H](CC(=O)O)NC(=O)[C@H](CCCCN)NC(=O)[C@H](C)NC(=O)[C@H](CCCCN)NC(=O)[C@H](CC(N)=O)NC(=O)[C@H](CC(C)C)NC(=O)[C@H](Cc1c[nH]c2ccccc12)NC(=O)[C@H](CC(=O)O)NC(=O)[C@H](CCCCN)NC(=O)[C@@H](NC(=O)CNC(=O)[C@H](C)N)[C@@H](C)O)[C@@H](C)CC)C(=O)N[C@@H](CC(C)C)C(=O)N[C@@H](CO)C(=O)N[C@@H](C)C(=O)N[C@@H](C)C(=O)N[C@@H](C)C(=O)N[C@@H](CC(N)=O)C(=O)N[C@@H](C)C(=O)N[C@@H](C)C(=O)N[C@H](C(=O)N[C@@H](CC(N)=O)C(=O)O)[C@@H](C)CC: > 50 nmol/g

Mixed results
had: had (Sphingobium sp. TCM1, UniProt A0A077JBW9)
CO[P@](=O)(Oc1ccc([N+](=O)[O-])cc1)OC(C)C  Km (had; p-nitrophenyl substrate hydrolysis, substrate): 2.3 ± 0.9 mM
CCOP(=O)(OCC)Oc1nc(Cl)c(Cl)cc1Cl  binding reduction (Albumin (Alb, Rattus norvegicus, UniProt P02770); [3H]DFP labelling; concentration not given; reference: control): 56 ± 2%
CC(C)C[C@@H]1NC(=O)[C@H](CCCNC(=N)N)NC(=O)[C@@H]2CCCN2C(=O)[C@@H]2CSSC[C@H](NC(=O)CNC(=O)[C@@H]3CCCN3C(=O)[C@H](CCCCN)NC(=O)[C@H](CC(=O)O)NC(=O)[C@@H](NC(=O)CN)C(C)C)C(=O)N[C@@H](CCCNC(=N)N)C(=O)N[C@@H](Cc3ccc(O)cc3)C(=O)N[C@@H](CC(C)C)C(=O)N[C@@H](Cc3ccccc3)C(=O)NCC(=O)NCC(=O)N[C@H]3CSSC[C@H](NC(=O)CNC1=O)C(=O)N[C@@H](CCCCN)C(=O)NCC(=O)N[C@@H](CCCCN)C(=O)NCC(=O)N[C@@H](Cc1c[nH]cn1)C(=O)N[C@@H](CC(=O)O)C(=O)N[C@@H](Cc1ccc(O)cc1)C(=O)N[C@H](C(=O)N[C@@H](C)C(=O)N[C@@H](Cc1c[nH]c4ccccc14)C(=O)N[C@@H](CC(=O)O)C(=O)NCC(=O)N[C@H](C(=O)N[C@@H](Cc1ccccc1)C(=O)N[C@@H](CO)C(=O)N[C@@H](CC(=O)O)C(=O)O)[C@@H](C)O)CSSC[C@H](NC(=O)[C@H](CC(=O)O)NC(=O)[C@H](CC(=O)O)NC(=O)[C@H](CC(=O)O)NC(=O)[C@H](CO)NC(=O)[C@H](CCCCN)NC3=O)C(=O)N2  neurons with more action potentials (mouse small DRG neurons; 1 µM): 83%
CO[P@](=O)(Oc1ccccc1)Oc1ccc([N+](=O)[O-])cc1  Km (had; p-nitrophenyl substrate hydrolysis, substrate): 0.25 ± 0.07 mM
CCOP(=O)(OCC)Oc1cc(C)nc(C(C)C)n1  IC50 (ACHE (Homo sapiens, UniProt P22303); enzyme activity, inhibitor, Ellman; with preincubation): ~500 nM

For quick reference, copied from above (mixed results):
CCOP(=O)(OCC)Oc1nc(Cl)c(Cl)cc1Cl  binding reduction (Albumin (Alb, Rattus norvegicus, UniProt P02770); [3H]DFP labelling; concentration not given; reference: control): 56 ± 2%
